Assay results of several laboratories.
Every numbered part comes from another study and shows a few of its results, in no order.

Block 1 — method: protein-binding microarray; molecule type: double-stranded DNA, one strand shown; sample: in vitro; concentration: 250 nM; notes: 60-bp whole probe; together with: salmon DNA 0.4 mg/ml; baseline: random background probes; direction: higher = stronger binding; endpoint: log fluorescence; all sequences stand within: GCCTAGCAC … GTCTTGATTCGCTTGACGCTGCTG
Target: Interferon regulatory factor 5, full length, phosphomimetic (IRF5, Homo sapiens, UniProt Q13568-2, residues 1-514, K96S/S451D/S453D/S456D/S462D)
TCAATTCTCTTTTCACTACTGTGCTAG: 1.84 z-score
ATAGATATGCCAAATCTGTGTGTGCTA: -0.0836 z-score
TTAGGACTGGACTTTCGCTTAGTGCTA: 5.64 z-score
TTAGGTCTCCATCTCCTTTAGTGCTAG: -0.0204 z-score
TCACTTCTCTTTTGGCTACTGTGCTAG: 1.48 z-score
GGGCCCTGCTGGGAAGTCAGGTGCTAG: -0.891 z-score
TAAGGACTGGACTTTCGGTTAGTGCTA: 9.61 z-score
GACGGTTTCGGTTTAGGGACGTGCTAG: 9.49 z-score

Block 2 — method: RNA Bind-n-Seq; molecule type: RNA; sample: in vitro; concentration: not given; baseline: input RNA pool; direction: higher = stronger binding; endpoint: bound/input enrichment
Target: RING finger protein unkempt homolog, zinc fingers 1-6, GST-SBP tag (UNK, Homo sapiens, UniProt Q9C0B0, residues 30-357)
Chain of UniProt Q9C0B0 (30-357, looked up): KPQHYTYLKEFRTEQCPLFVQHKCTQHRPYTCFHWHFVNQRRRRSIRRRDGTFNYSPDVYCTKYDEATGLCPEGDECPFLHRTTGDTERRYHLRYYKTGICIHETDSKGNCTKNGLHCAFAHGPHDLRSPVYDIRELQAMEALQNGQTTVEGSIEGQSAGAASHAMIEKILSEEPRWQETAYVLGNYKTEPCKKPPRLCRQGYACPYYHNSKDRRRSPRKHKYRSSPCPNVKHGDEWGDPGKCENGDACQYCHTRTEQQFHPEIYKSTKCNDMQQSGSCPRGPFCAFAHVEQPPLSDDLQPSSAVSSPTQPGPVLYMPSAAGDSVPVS
Notes: RNA with constant flanks, human-mouse chimeric sites, ends assumed
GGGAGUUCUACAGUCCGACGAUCUUUGUAUUUAUGCUAAGCACGCGUGCUGGUGGUCUGGGCAUCAAUCUUGCAACUGCUGAUGUAGUCAUUUUAUAUGACUCAGAUUGGAAUCCGCAAGUUGAUCUUCAGGCUAUGGACCGUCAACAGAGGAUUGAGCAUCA: 0.102 ratio
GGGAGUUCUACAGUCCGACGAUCGAGCGUCUCGCUCGAACUGGGAUCAUCGUGACCACUAGUGAGGCUGUCCUCCUACAGCUGGUGGCUGACAAAGACCAUCCAAAAUUCAAGGAAAUUCAGAACCUAAUUAAGGCGAGUGCCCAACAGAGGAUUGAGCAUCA: 0.14 ratio
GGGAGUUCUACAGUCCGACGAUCAUGGAACAUUUCGAUGCGUCACUCAGUACCUAUUUCAAGGCCUUCCUGGGCCCCCGAGAUACAAGAGUAAAAGGAUGGUUCCUCCUGGACAAUUACAUCCCUACGUUUAUCUGCUCUGUUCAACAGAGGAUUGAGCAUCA: 0.068 ratio
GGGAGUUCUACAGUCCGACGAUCGGCCUGGGACCGUCCUGGGCUAGUACAAAUAGCGGCAGUGGAGGCUCGAGAGGAAAGUUUGUUAGUGGAGGCAGUGGAGAGGUCGUCCAUGUACGGUCUUUACACGAAUAGAUGUGUUCUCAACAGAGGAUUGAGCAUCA: 0.63 ratio
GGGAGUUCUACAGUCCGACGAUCGAGCCCAGUCGGCAGUUUGUAAAGGACUCAAUUCGGCUGGUUAAAAGAUGCACCAAACCCGACAGAAAAGAAUUCCAGAAGAUUGCCAUGGCUACAGCAAUAGGAUUUGCUAUCAUGGGACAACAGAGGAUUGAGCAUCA: 0.157 ratio
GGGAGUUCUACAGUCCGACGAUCAGUGUGCAGGAAUUCAUGACCUUUACAAGUCAACUGAUUGUGGAACGCUCGGGGAAAGGCAGCAGAGCUUCUGUCAAAGAACAAGACUAUCUGUGCCAUGUCUACGUCCGGAGCGACAGUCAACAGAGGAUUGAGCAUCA: 0.147 ratio
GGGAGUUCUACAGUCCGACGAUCCAGCUGCAGACAGAAAAGGAUGAGAAGGAACUUUAUAAGGUACAUUUGAAGAAUACAGAAAUAGAAAAUACGAAGCUUGUGUCAGAGAUACAGACUUUAAAGAAUUUAGAUGGGAACAAACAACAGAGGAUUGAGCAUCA: 4.09 ratio
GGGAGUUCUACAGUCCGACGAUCCUGUGUGGCUUACUAAAAUGGCUUGUAAAGAAGUUUUUCCAAGCUGUAACCCAUGCUGUUAUUAUAGUUGCUGCAAAAUGUUCUUCCUGAUAUUGAUUUUAUUUGUUCUGACUCUCCCUCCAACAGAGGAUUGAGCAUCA: 0.781 ratio

Block 3 — method: RNA Bind-n-Seq; molecule type: RNA; sample: in vitro; concentration: 20 nM; notes: 6-mer, flanks averaged, single round; together with: 150 mM LiCl; baseline: input library; direction: higher = stronger binding; endpoint: 6-mer enrichment (R)
Target: TAR DNA-binding protein 43, full length, His tag (TARDBP, Homo sapiens, UniProt Q13148, residues 1-414)
UCAAGU: 0.901
CAAUCA: 0.83
CCUACG: 0.857
CAAUAC: 0.837
CGGAAC: 0.874
UACAAG: 0.843
CUAGUA: 0.878
GUUUUG: 1.5

Other studies, line by line
CN1CCCN(C(c2ccccc2)c2ccc(Cl)cc2)CC1 (stereo not shown)  nuclei count (mouse MPNST tumor cells; high-content nuclear imaging, refers to: cell number; 10 µM, 12 h, mean of 2 replicates; baseline: plate mean, higher = more cells): -6.97 z-score

Excerpt of the above (block 3):
UCAAGU: 0.901
CAAUCA: 0.83
